{"data": "Assay results collected from several papers", "cell line": "TK-10", "note": "Compare with care: the assays were run in different laboratories."}
{"SMILES": "S=C([S][Au-][P+](CCCCCC[P+]([Au-][S]C(=S)n1cccn1)(c1ccccc1)c1ccccc1)(c1ccccc1)c1ccccc1)n1cccn1", "test": "cell growth, NCI-60 screen", "setting": "renal cancer", "quantity": "log10 TGI", "result": "> -4"}
{"SMILES": "CCCCN1CCN(c2ccc3nc(-c4ccc5nc(-c6cc(OC)ccc6OC)[nH]c5c4)[nH]c3c2)CC1", "test": "SRB", "setting": "10 µM, 48 h", "quantity": "growth percent", "result": "118%"}
{"SMILES": "C#C[C@@]1(O)[C@@H](CO)O[C@@H](n2cc(I)c3c(N)ncnc32)[C@@H]1O", "test": "SRB", "setting": "NCI-60 screen", "quantity": "TGI", "result": "5.51 µM"}
{"SMILES": "Cn1cncc1C1=CN(c2ncnc3[nH]cnc23)CCS1", "setting": "renal cancer", "quantity": "GI50", "result": "6.8 µM"}
{"SMILES": "CCCCN1CCN(c2ccc3[nH]c(-c4ccc5[nH]c(-c6ccc(OCC)cc6)nc5c4)nc3c2)CC1", "test": "SRB", "setting": "10 µM, 48 h", "quantity": "growth percent", "result": "86.8%"}
{"SMILES": "O=C(Nc1nnc2n3c(nc(-c4ccc(Cl)cc4)c1-2)SCC3=O)c1ccccc1", "test": "SRB", "setting": "10 µM, NCI60 single-dose screen", "scale": "baseline: untreated", "quantity": "cell growth", "result": "153%"}
{"SMILES": "CCN(CC)c1ccc(C=NNC(=O)CSc2nc3ccccc3c(=O)n2Cc2ccc(S(N)(=O)=O)cc2)c(O)c1", "test": "NCI five-dose screen", "quantity": "TGI", "result": "> 100 µM"}
{"SMILES": "O=C(Nc1nnc2[nH]c(=S)[nH]c(-c3ccc(Cl)cc3)c1-2)c1ccccc1", "test": "SRB", "setting": "10 µM, NCI60 single-dose screen", "scale": "baseline: untreated", "quantity": "cell growth", "result": "112%"}
{"SMILES": "C#C[C@@]1(O)[C@@H](CO)O[C@@H](n2ccc3c(N)ncnc32)[C@@H]1O", "test": "SRB", "setting": "NCI-60 screen", "quantity": "TGI", "result": "9.48 µM"}
{"SMILES": "CCCCN1CCN(c2ccc3[nH]c(-c4ccc5[nH]c(-c6ccc(OCC)c(OCC)c6)nc5c4)nc3c2)CC1", "test": "SRB", "setting": "10 µM, 48 h", "quantity": "growth percent", "result": "57%"}
{"SMILES": "C#C[C@@]1(O)[C@@H](CO)O[C@@H](n2cc(F)c3c(N)ncnc32)[C@@H]1O", "test": "SRB", "setting": "NCI-60 screen", "quantity": "TGI", "result": "6.56 µM"}
{"SMILES": "O=C(Nc1nnc2n3c(=S)[nH][nH]c3nc(-c3ccc(Cl)cc3)c1-2)c1ccccc1", "test": "SRB", "setting": "10 µM, NCI60 single-dose screen", "scale": "baseline: untreated", "quantity": "cell growth", "result": "119%"}
{"SMILES": "O=C1NC(=NCc2cccs2)S/C1=C\\c1ccc2ncccc2c1", "test": "MTS", "setting": "NCI60 panel", "quantity": "IC50", "result": "> 10 µM"}
{"SMILES": "CSc1nc(-c2ccc(Cl)cc2)c2c(NC(=O)c3ccccc3)nnc-2[nH]1", "test": "SRB", "setting": "10 µM, NCI60 single-dose screen", "scale": "baseline: untreated", "quantity": "cell growth", "result": "117%"}
{"SMILES": "CCCN1CCN(c2ccc3[nH]c(-c4ccc5[nH]c(-c6ccc(OCC)c(OCC)c6)nc5c4)nc3c2)CC1", "test": "SRB", "setting": "10 µM, 48 h", "quantity": "growth percent", "result": "-0.9%"}
{"note": "Repeated from above:"}
{"SMILES": "O=C1NC(=NCc2cccs2)S/C1=C\\c1ccc2ncccc2c1", "test": "MTS", "setting": "NCI60 panel", "quantity": "IC50", "result": "> 10 µM"}
{"SMILES": "C#C[C@@]1(O)[C@@H](CO)O[C@@H](n2cc(I)c3c(N)ncnc32)[C@@H]1O", "test": "SRB", "setting": "NCI-60 screen", "quantity": "TGI", "result": "5.51 µM"}
